Measurements from different studies.
Every numbered part comes from another study and shows a few of its results, in no order. Several values in a cell are separate wells, animals, samples, runs or records.
Chain of UniProt Q9Y2K2 (whole entry, looked up): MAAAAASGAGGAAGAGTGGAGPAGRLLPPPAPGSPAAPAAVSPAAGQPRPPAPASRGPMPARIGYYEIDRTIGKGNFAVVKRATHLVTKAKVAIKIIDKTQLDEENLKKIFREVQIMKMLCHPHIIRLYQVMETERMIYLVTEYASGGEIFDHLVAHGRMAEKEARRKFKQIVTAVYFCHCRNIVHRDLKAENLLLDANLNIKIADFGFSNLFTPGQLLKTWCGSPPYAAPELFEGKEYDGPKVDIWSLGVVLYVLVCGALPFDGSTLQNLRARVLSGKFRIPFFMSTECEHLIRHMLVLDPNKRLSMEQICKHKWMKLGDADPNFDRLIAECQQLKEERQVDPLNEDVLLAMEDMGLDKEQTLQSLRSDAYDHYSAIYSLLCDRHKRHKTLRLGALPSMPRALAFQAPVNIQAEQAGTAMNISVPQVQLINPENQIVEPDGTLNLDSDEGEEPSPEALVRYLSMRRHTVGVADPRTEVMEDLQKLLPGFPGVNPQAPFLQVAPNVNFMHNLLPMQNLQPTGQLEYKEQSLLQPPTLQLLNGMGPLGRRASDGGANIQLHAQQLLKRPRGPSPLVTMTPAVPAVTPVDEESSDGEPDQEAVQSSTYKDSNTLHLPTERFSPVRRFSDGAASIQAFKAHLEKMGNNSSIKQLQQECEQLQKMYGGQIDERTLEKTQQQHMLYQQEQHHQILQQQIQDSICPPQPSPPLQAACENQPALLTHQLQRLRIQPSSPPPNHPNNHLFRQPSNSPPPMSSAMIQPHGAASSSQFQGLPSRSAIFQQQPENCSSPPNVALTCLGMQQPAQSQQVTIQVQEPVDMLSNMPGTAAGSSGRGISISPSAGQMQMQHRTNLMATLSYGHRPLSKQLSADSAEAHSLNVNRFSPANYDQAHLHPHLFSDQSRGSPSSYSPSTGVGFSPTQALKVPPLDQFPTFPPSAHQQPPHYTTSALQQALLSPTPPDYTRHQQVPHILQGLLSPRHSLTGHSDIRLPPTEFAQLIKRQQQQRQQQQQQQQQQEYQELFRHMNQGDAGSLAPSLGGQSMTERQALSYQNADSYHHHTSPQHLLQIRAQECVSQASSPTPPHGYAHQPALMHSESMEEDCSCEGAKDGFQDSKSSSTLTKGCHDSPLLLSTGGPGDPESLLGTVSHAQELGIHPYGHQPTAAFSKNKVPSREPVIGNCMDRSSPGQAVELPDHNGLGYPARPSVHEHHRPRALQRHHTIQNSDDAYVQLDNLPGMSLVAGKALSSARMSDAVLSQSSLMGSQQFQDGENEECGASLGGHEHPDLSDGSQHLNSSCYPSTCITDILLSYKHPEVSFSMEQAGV
Chain of UniProt P23458 (whole entry, looked up): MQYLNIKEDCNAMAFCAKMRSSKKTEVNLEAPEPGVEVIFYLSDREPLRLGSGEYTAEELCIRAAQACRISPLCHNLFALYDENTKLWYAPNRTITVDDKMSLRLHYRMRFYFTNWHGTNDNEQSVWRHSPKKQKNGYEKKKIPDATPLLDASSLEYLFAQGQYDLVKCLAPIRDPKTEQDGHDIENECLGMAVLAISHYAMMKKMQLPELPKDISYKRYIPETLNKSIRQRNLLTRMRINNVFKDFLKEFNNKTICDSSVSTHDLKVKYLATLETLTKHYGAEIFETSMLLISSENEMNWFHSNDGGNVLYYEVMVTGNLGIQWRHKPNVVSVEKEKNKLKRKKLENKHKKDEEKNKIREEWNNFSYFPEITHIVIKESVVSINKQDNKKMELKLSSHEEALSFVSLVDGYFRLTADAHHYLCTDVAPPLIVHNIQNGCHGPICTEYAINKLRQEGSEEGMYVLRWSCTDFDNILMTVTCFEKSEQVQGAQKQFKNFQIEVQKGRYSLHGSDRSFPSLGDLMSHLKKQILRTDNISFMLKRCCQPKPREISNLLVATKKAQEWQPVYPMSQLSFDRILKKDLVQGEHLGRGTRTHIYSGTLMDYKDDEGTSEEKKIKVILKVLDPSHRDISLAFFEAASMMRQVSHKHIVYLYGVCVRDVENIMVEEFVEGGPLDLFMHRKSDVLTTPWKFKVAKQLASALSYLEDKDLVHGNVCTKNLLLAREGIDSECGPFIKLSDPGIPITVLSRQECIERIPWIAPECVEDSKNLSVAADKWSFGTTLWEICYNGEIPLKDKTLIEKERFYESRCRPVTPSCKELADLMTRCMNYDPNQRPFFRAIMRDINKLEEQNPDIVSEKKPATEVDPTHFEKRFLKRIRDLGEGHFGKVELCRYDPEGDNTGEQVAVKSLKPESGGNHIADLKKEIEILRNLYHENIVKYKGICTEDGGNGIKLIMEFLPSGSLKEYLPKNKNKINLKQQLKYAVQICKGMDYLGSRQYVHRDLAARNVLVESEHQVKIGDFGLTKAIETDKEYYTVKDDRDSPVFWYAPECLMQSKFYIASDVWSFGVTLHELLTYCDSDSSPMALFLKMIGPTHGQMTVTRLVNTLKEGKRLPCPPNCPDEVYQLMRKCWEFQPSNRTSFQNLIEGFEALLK
Chain of UniProt Q15139 (whole entry, looked up): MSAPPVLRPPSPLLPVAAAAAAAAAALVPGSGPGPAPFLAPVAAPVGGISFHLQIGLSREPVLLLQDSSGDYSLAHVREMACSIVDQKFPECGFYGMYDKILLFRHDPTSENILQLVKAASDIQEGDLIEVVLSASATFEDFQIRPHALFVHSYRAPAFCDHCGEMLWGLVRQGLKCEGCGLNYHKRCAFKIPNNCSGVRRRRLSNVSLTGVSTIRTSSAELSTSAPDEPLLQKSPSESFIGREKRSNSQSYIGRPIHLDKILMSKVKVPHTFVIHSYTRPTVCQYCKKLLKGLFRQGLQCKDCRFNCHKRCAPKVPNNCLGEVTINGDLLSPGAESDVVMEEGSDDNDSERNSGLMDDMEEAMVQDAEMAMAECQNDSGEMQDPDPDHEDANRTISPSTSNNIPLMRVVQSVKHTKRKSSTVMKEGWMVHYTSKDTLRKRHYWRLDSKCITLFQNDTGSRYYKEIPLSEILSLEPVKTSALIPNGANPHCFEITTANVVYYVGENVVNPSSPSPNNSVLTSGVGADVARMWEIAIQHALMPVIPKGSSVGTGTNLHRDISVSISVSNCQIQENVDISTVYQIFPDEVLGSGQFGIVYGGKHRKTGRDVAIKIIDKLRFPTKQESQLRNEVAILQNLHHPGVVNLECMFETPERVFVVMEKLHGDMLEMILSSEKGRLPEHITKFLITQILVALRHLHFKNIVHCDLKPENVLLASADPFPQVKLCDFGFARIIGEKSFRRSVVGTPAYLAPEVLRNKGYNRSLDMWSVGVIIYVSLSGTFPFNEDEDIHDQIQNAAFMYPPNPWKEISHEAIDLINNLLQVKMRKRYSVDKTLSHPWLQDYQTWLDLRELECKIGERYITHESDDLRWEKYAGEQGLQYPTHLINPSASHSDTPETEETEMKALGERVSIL
Chain of UniProt P54760 (whole entry, looked up): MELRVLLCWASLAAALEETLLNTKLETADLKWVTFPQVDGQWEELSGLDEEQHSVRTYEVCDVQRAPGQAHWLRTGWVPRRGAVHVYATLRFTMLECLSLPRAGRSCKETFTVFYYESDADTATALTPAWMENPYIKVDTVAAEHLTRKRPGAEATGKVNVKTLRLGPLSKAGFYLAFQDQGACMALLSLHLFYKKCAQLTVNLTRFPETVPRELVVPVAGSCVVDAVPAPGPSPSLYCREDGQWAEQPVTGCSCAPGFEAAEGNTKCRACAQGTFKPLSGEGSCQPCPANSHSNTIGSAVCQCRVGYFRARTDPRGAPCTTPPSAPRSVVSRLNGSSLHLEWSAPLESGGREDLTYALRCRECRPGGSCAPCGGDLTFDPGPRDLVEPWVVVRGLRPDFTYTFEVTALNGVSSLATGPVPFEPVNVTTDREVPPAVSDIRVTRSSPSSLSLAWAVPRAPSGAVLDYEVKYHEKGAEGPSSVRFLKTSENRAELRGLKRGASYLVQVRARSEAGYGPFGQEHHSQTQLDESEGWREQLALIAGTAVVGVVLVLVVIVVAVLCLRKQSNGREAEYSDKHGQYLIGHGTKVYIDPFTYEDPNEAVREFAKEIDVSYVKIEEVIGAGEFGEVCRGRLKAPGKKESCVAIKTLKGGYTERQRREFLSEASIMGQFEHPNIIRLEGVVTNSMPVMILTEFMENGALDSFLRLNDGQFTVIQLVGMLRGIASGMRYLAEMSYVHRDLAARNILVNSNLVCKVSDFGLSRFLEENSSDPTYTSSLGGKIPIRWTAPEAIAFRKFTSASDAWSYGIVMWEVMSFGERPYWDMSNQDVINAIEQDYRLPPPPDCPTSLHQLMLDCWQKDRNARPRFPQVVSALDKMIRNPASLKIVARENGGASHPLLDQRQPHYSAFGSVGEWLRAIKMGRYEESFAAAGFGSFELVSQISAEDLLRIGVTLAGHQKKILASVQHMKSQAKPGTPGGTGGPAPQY

Block 1
SMILES: CSc1cccnc1N1CCN(Cc2nc3ccccc3[nH]2)CC1
Observed: cell-free assay
Technique: competition with immobilised ligand
Concentration: 1 µM
target | remaining binding [%]
Mitogen-activated protein kinase 12 (MAPK12, Homo sapiens, UniProt P53778) | 98
Mitogen-activated protein kinase 10 (MAPK10, Homo sapiens, UniProt P53779) | 66
Serine/threonine-protein kinase SIK3 (SIK3, Homo sapiens, UniProt Q9Y2K2) | 100
Phosphatidylinositol 4,5-bisphosphate 3-kinase catalytic subunit gamma isoform (PIK3CG, Homo sapiens, UniProt P48736) | 64
Phosphatidylinositol 4,5-bisphosphate 3-kinase catalytic subunit alpha isoform (PIK3CA, Homo sapiens, UniProt P42336) | 69
Serine/threonine-protein kinase 26 (STK26, Homo sapiens, UniProt Q9P289) | 95
Mitogen-activated protein kinase 9 (MAPK9, Homo sapiens, UniProt P45984) | 68

Block 2
Structure (SMILES): CC(=O)N[C@@H](Cc1c[nH]c2ccccc12)C(=O)N[C@@H](CCC(=O)C=[N+]=[N-])C(=O)OC(C)C
Route: subcutaneous
Dose: 0.3 mg/kg/day DON equivalent
Time: 5 days
Direction: higher = more metabolite
assay | test system | metabolite peak area
UPLC-MS/MS metabolomics, refers to: cysteine-glutathione disulfide | EL4, C57BL/6 CES1-/- mice, EL4 tumour, tumour | 9.21e+07 a.u. and 4.68e+07 a.u. and 4.75e+07 a.u. and 3.46e+07 a.u. and 2.82e+07 a.u. and 6.09e+07 a.u.
UPLC-MS/MS, refers to: valine | C57BL/6 CES1-/- mice, EL4 tumour | 1.56e+09 a.u. and 2.41e+09 a.u. and 1.7e+09 a.u. and 1.99e+09 a.u. and 1.68e+09 a.u. and 1.85e+09 a.u.
UPLC-MS/MS metabolomics, refers to: erythronate | EL4, C57BL/6 CES1-/- mice, EL4 tumour, tumour | 3.76e+08 a.u. and 3.53e+08 a.u. and 2.55e+08 a.u. and 3.97e+08 a.u. and 2.18e+08 a.u. and 3.25e+08 a.u.
UPLC-MS/MS, refers to: 3'-UMP | C57BL/6 CES1-/- mice, EL4 tumour | 900000 a.u. and 662000 a.u. and 363000 a.u. and 885000 a.u. and 474000 a.u. and 724000 a.u.
UPLC-MS/MS metabolomics, refers to: creatinine | EL4, C57BL/6 CES1-/- mice, EL4 tumour, tumour | 8.81e+07 a.u. and 1.48e+08 a.u. and 2.37e+08 a.u. and 6.86e+07 a.u. and 1.14e+08 a.u. and 1.78e+08 a.u.
UPLC-MS/MS metabolomics, refers to: dihydrobiopterin | EL4, C57BL/6 CES1-/- mice, EL4 tumour, tumour | 587000 a.u. and 543000 a.u. and 618000 a.u. and 395000 a.u. and 623000 a.u. and 503000 a.u.
UPLC-MS/MS, refers to: 2'-UMP | C57BL/6 CES1-/- mice, EL4 tumour | 283000 a.u. and 286000 a.u. and 167000 a.u. and 255000 a.u. and 133000 a.u. and 314000 a.u.
UPLC-MS/MS, refers to: ascorbic acid 3-sulfate | C57BL/6 CES1-/- mice, EL4 tumour | 4.86e+06 a.u. and 2.93e+06 a.u. and 1.94e+06 a.u. and 2.35e+06 a.u. and 2.86e+06 a.u. and 3.66e+06 a.u.

Block 3
SMILES: C=CC(=O)N1CCC([C@@H]2CCNc3c(C(N)=O)c(-c4ccc(Oc5ccccc5)cc4)nn32)CC1
Concentration: 1 µM
target | assay | inhibition [%]
Serine/threonine-protein kinase D1 (PRKD1, Homo sapiens, UniProt Q15139) | enzyme activity, inhibitor | 4
cAMP-dependent protein kinase catalytic subunit PRKX (PRKX, Homo sapiens, UniProt P51817) | enzyme activity, inhibitor | 1
Ephrin type-B receptor 4 (EPHB4, Homo sapiens, UniProt P54760) | cell-free assay | 0
Serine/threonine-protein kinase WNK2 (WNK2, Homo sapiens, UniProt Q9Y3S1) | enzyme activity, inhibitor | 46
Calcium/calmodulin-dependent protein kinase type II subunit delta (CAMK2D, Homo sapiens, UniProt Q13557) | enzyme activity, inhibitor | 0
BMP-2-inducible protein kinase (BMP2K, Homo sapiens, UniProt Q9NSY1) | enzyme activity, inhibitor | 29
Tyrosine-protein kinase JAK1, JH2 pseudokinase domain (JAK1, Homo sapiens, UniProt P23458) | inhibitor | 4

Block 4
Target: Serine/threonine-protein kinase OSR1 (OXSR1, Homo sapiens, UniProt O95747)
Chain of UniProt O95747 (whole entry, looked up): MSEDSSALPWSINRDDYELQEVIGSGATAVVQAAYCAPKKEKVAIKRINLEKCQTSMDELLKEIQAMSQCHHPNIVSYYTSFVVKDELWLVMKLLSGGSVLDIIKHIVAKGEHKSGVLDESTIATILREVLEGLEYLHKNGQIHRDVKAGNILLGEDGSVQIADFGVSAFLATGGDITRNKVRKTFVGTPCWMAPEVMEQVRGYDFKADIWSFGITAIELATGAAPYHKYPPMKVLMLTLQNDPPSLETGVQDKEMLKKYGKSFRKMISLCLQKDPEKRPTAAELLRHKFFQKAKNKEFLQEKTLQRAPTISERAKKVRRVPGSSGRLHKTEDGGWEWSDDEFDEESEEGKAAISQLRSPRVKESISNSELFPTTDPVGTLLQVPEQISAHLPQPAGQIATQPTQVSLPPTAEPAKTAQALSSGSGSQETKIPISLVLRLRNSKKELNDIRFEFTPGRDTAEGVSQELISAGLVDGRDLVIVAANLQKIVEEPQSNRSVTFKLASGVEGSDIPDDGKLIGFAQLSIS
Observed: enzyme activity
Action: inhibitor
Concentration: 0.5 µM
Baseline: control
Structure (SMILES) | remaining activity [%]
NCCNc1ncc(C(N)=O)c(Nc2cccc(C(F)(F)F)c2)n1 | 104
COc1ccc(OC)c2c(=S)c3ccccc3[nH]c12 | 90.6
Nc1ncnc2n[nH]c(Nc3ccc(F)cc3)c12 | 110
COc1cc2ncnc(Nc3ccc(Oc4ccccc4)cc3)c2cc1OC | 97.5
O=C1NC(=O)C(c2cn(CCCn3ccnc3)c3ccccc23)=C1Nc1ccccc1 | 97.2
OCC(O)CCON=C1C(c2c(O)[nH]c3ccccc23)=Nc2ccccc21 (stereo not shown) | 98.6
O=C(Nc1cccc(Nc2cc(Nc3cccc(C(F)(F)F)c3)ncn2)c1)C1CC1 | 110
CCOC(=O)c1c(C)[nH]c(/C=C2\C(=O)Nc3ccccc32)c1C | 87.9
CO[C@H]1C[C@@H]2CC[C@@H](C)[C@@](O)(O2)C(=O)C(=O)N2CCCC[C@H]2C(=O)O[C@H]([C@H](C)C[C@@H]2CC[C@@H](O)[C@H](OC)C2)CC(=O)[C@H](C)/C=C(\C)[C@@H](O)[C@@H](OC)C(=O)[C@H](C)C[C@H](C)/C=C/C=C/C=C/1C | 96.6
O=c1c2ccccc2[nH]c(=S)n1CCN1CCC(=C(c2ccc(F)cc2)c2ccc(F)cc2)CC1 | 115
CC(C)[C@H](CO)Nc1nc(Nc2cc(N)cc(Cl)c2)c2ncn(C(C)C)c2n1 | 100
COc1cc2nccc(Oc3ccc(NC(=S)NC(=O)c4ccccc4C)cc3)c2cc1OC | 106
COc1ccc(CNC(=O)Nc2ncc([N+](=O)[O-])s2)cc1 | 95.9
Cn1sc(=O)n(Cc2ccccc2)c1=O | 91.1
O=C(CCCc1ccc(-c2ccccc2F)cc1)Nc1ccc(O)cc1 | 102

Repeated from above (block 2):
assay | test system | metabolite peak area
UPLC-MS/MS, refers to: ascorbic acid 3-sulfate | C57BL/6 CES1-/- mice, EL4 tumour | 4.86e+06 a.u. and 2.93e+06 a.u. and 1.94e+06 a.u. and 2.35e+06 a.u. and 2.86e+06 a.u. and 3.66e+06 a.u.
UPLC-MS/MS metabolomics, refers to: erythronate | EL4, C57BL/6 CES1-/- mice, EL4 tumour, tumour | 3.76e+08 a.u. and 3.53e+08 a.u. and 2.55e+08 a.u. and 3.97e+08 a.u. and 2.18e+08 a.u. and 3.25e+08 a.u.
UPLC-MS/MS, refers to: 3'-UMP | C57BL/6 CES1-/- mice, EL4 tumour | 900000 a.u. and 662000 a.u. and 363000 a.u. and 885000 a.u. and 474000 a.u. and 724000 a.u.
UPLC-MS/MS metabolomics, refers to: dihydrobiopterin | EL4, C57BL/6 CES1-/- mice, EL4 tumour, tumour | 587000 a.u. and 543000 a.u. and 618000 a.u. and 395000 a.u. and 623000 a.u. and 503000 a.u.
UPLC-MS/MS metabolomics, refers to: cysteine-glutathione disulfide | EL4, C57BL/6 CES1-/- mice, EL4 tumour, tumour | 9.21e+07 a.u. and 4.68e+07 a.u. and 4.75e+07 a.u. and 3.46e+07 a.u. and 2.82e+07 a.u. and 6.09e+07 a.u.
